Assay results collected from several papers.
± gives the spread as reported.
Organism: Hepatitis C virus

The EC50 of `CC(C)(C)[C@H](NC(=O)[C@@H](NC(=O)c1cnccn1)C1CCCCC1)C(=O)N1CC2(Cc3ccccc3C2)C1C(=O)NC(CC1CC1)C(=O)C(=O)NC1CC1` (some centres unmarked) is reported as 700 nM (viral replication, inhibitor; Huh-7; replicon).
Under “sensitivity of resistant replicon”, `Clc1ccc(Cn2c(CN3CCCC3)nc3ccccc32)cc1` is recorded as “no effect” (replicon colony formation; Huh7.5 transfected with replicon RNA, W55R NS4B mutant; 8 µM).
With `COC(=O)N[C@H](C(=O)N1CCC[C@H]1c1nc(-c2ccc(-c3ccc(-c4c[nH]c([C@@H]5CCCN5C(=O)[C@@H](NC(=O)OC)C(C)C)n4)cc3)cc2)c[nH]1)C(C)C` the EC50 was under 0.006 nM (replicon replication; Huh7-Lunet/T7, subgenomic reporter replicon; 24 h, added 4 h post-transfection).
For `O=C(NCCCN1CCCCC1)c1ccc2c(=O)n(CCc3ccccc3)c(=O)[nH]c2c1`, the maximal response was -83.3% (HCV infection, Gaussia luciferase reporter; Huh7.5.1 reporter cells; relative to: 10 µM cyclosporin A, DMSO, negative means inhibition).
For `CCC[C@H](NC(=O)[C@@H]1[C@H]2CCC[C@H]2CN1C(=O)[C@@H](NC(=O)[C@@H](NC(=O)c1cnccn1)C1CCCCC1)C(C)(C)C)C(=O)C(=O)NC1CC1`, the EC50 was 250 ± 24 nM (viral replication; Ava5 replicon cells, genotype 1b Con1 subgenomic).
The EC50 of `CC(C)(C)OC(=O)N[C@H]1CCCCC/C=C\[C@@H]2C[C@@]2(C(=O)NS(=O)(=O)C2CC2)NC(=O)[C@@H]2C[C@@H](OC(=O)N3Cc4cccc(F)c4C3)CN2C1=O` is reported as 2 nM (viral replication, inhibitor; Huh7.5, GETYPE1B; 72 h, replicon).
`CCC1CCCCN1CCCNC(=O)C1CCN(Cc2nc(-c3ccc(Cl)cc3)oc2C)CC1` (centres unmarked) gave a maximal response of -80.8% (HCV infection, Gaussia luciferase reporter; Huh7.5.1 reporter cells; relative to: 10 µM cyclosporin A, DMSO, negative means inhibition).
`O=c1cc(OCc2cccc(Cl)c2)oc2ccc(OCc3cccc(Cl)c3)c(O)c12` has an EC50 of 17000 to 24000 nM (viral replication, inhibitor; Huh-7, GETYPE1; 96 h, replicon).
For `CCCCCn1c(=O)[nH]c2cc(C(=O)NC3CCN(Cc4ccccc4)CC3)ccc2c1=O`, the maximal response was 12.5% (HCV infection, Gaussia luciferase reporter; Huh7.5.1 reporter cells; relative to: 10 µM cyclosporin A, DMSO, negative means inhibition).
For `O=c1cc(OCc2ccc(Cl)cc2)oc2ccc(OCc3cccc(Cl)c3)c(O)c12`, the EC50 was 17000 to 24000 nM (viral replication, inhibitor; Huh-7, GETYPE1; 96 h, replicon).
The EC50 of `COC(=O)N[C@H](C(=O)N1CCC[C@H]1c1ncc(-c2ccc(-c3ccc(-c4cnc([C@@H]5CCCN5C(=O)[C@@H](NC(=O)OC)C(C)C)[nH]4)cc3)cc2)[nH]1)C(C)C` is reported as 0.0059 ± 0.0037 nM (replicon replication, transient replicon; genotype 1a wild type).

For quick reference, copied from above:
With `COC(=O)N[C@H](C(=O)N1CCC[C@H]1c1nc(-c2ccc(-c3ccc(-c4c[nH]c([C@@H]5CCCN5C(=O)[C@@H](NC(=O)OC)C(C)C)n4)cc3)cc2)c[nH]1)C(C)C` the EC50 was under 0.006 nM (replicon replication; Huh7-Lunet/T7, subgenomic reporter replicon; 24 h, added 4 h post-transfection).
